{"data": "Results pooled from the literature", "note": "Each line is one published result; not all experiments were run side by side. “And” joins repeats or separate records; there may be more than shown. ± marks the error that the study gave."}
{"SMILES": "Cc1ccc2nc(-c3ccccc3)cn2c1", "organism": "Leishmania infantum", "system": "MHOM/MA(BE)/67/ITMAP263", "setting": "120 h", "scale": "relative to: CC50 macrophages over EC50 amastigotes", "measurement": "selectivity index", "result": 1}
{"SMILES": "COC[C@H]1O[C@@H]2O[C@@H]3[C@@H](OC)[C@@H](OC)[C@@H](O[C@@H]4[C@@H](OC)[C@@H](OC)[C@@H](O[C@@H]5[C@@H](OC)[C@@H](OC)[C@@H](O[C@@H]6[C@@H](OC)[C@@H](OC)[C@@H](O[C@@H]7[C@@H](OC)[C@@H](OC)[C@@H](O[C@@H]1[C@@H](OC)[C@H]2OC)O[C@@H]7COC)O[C@@H]6COC)O[C@@H]5COC)O[C@@H]4COC)O[C@@H]3COC", "organism": "Escherichia coli", "assay": "LuxR reporter, agonist", "system": "DH5α sensor strain", "setting": "4 µM", "measurement": "bioluminescence", "result": "879 ± 22 RLU"}
{"SMILES": "CC(=O)NC[C@H]1CN(c2ccc(N3CCOCC3)c(F)c2)C(=O)O1", "organism": "Staphylococcus epidermidis", "system": "methicillin-resistant, 10 isolates", "setting": "pH 8.5", "measurement": "MIC50", "result": "2 mg/L"}
{"SMILES": "C[C@@H]1O[C@@H](OC[C@H]2O[C@@H](Oc3c(-c4ccc(O)c(O)c4)oc4cc(O)cc(O)c4c3=O)[C@H](O)[C@@H](O)[C@@H]2O)[C@H](O)[C@H](O)[C@H]1O", "organism": "human immunodeficiency virus 1", "assay": "viral replication", "system": "TZM-bl cells, BaL (CCR5-tropic)", "setting": "48 h", "measurement": "IC50", "result": "> 100 µM"}
{"SMILES": "Fc1ccc(Nc2c(Cn3cccn3)nc3ccccn23)cc1", "organism": "Leishmania infantum", "system": "intramacrophage amastigotes, MHOM/MA(BE)/67/ITMAP263", "measurement": "IC50", "result": "> 64 µM"}
{"SMILES": "CCCCCCC(=O)ON=C(/C=C/c1ccccc1F)/C=C/c1ccccc1F", "organism": "Aedes aegypti", "assay": "larval mortality", "system": "fourth instar larvae", "setting": "72 h", "measurement": "LC50", "result": "27.9 µM"}
{"SMILES": "Fc1cc(F)cc(N/N=C/c2ccc(-c3ccc(/C=N/Nc4cc(F)cc(F)c4)cc3)cc2)c1", "organism": "Candida and Aspergillus", "setting": "concentration not given, strain panel", "measurement": "antifungal activity", "result": "inactive"}
{"SMILES": "CC(C)n1ncc2c(C(=O)NCC3(C)CNC3)cc(C3CC3)nc21", "organism": "Enterovirus D68", "assay": "cytopathic effect", "system": "RD, US/MO/14-18949", "setting": "1500 nM", "measurement": "cell protection", "result": "102% and 95.9%"}
{"SMILES": "Fc1ccc(N(CC2CC2)c2c(-c3ccccn3)nc3ccccn23)cc1", "organism": "Leishmania infantum", "system": "macrophages, MHOM/MA(BE)/67/ITMAP263, amastigote", "measurement": "IC50", "result": "1.29 µM and 2.03 µM"}
{"SMILES": "N=C(N)c1cccc(OCc2ccc(COc3cccc(C(=N)N)c3)cc2)c1", "organism": "Escherichia coli", "system": "552100", "setting": "in combination, checkerboard, together with: rifampicin", "measurement": "MIC", "result": "50 mg/L"}
{"SMILES": "O=C1C(Cl)=C(n2cncn2)C(=O)c2ccccc21", "organism": "Alternaria alternata", "system": "ITCC 4522", "setting": "10 µg/mL", "measurement": "zone of inhibition", "result": "14 mm"}
{"SMILES": "O=C1/C(=C/c2ccc([N+](=O)[O-])cc2[N+](=O)[O-])NC(=S)N1c1ccccc1", "organism": "Bacillus cereus", "system": "ATCC 14579", "setting": "concentration not given", "measurement": "inhibition zone diameter", "result": "15 ± 0.14 mm"}
{"SMILES": "Fc1ccc(-c2c(-c3ccccn3)nc3n2CCC3)cc1", "organism": "Leishmania infantum", "system": "macrophages, MHOM/MA(BE)/67/ITMAP263, amastigote", "measurement": "IC50", "result": "3.17 µM and 2 µM"}
{"SMILES": "O=[N+]([O-])c1ccc(N2CCN(S(=O)(=O)c3ccc(F)cc3)CC2)cc1NCc1cccnc1", "organism": "Aedes aegypti", "system": "adult females", "setting": "topical, 12.5 nmol/mosquito, 24 h", "measurement": "flightless or dead mosquitoes", "result": "49%"}
{"SMILES": "Cc1cc(OC(C)C)ccc1C(=O)C(C)(C)NC(=O)c1sccc1C", "organism": "Botrytis cinerea", "assay": "germ tube elongation", "system": "B05.10", "setting": "0.03 µg/mL", "measurement": "inhibition", "result": "54.1 ± 30.4%"}
{"SMILES": "[2H]C([2H])([2H])N(c1ccc(F)cc1)c1c(-c2ccccn2)nc2ccccn12", "organism": "Leishmania infantum", "system": "macrophages, MHOM/MA(BE)/67/ITMAP263, amastigote", "measurement": "IC50", "result": "1.26 µM"}
{"SMILES": "CC(=O)Oc1ccccc1C(=O)Nc1ncc([N+](=O)[O-])s1", "organism": "Cryptosporidium parvum", "assay": "egress and reinvasion", "system": "HCT-8", "setting": "2 x EC90, 19.5 h, compound added 6 h postinfection", "scale": "relative to: vacuoles at 6 h", "measurement": "parasite vacuole ratio", "result": "1.01 and 2.61 and 1.11"}
{"SMILES": "CN(c1ccc(F)cc1)c1c(-c2cc(Cl)ccn2)nc2ccccn12", "organism": "Leishmania infantum", "system": "macrophages, MHOM/MA(BE)/67/ITMAP263, amastigote", "measurement": "IC50", "result": "1.74 µM and 8.06 µM"}
{"SMILES": "COc1ccc(NS(=O)(=O)c2ccc(N(C)C=O)cc2)cn1", "organism": "Leishmania infantum", "assay": "intracellular amastigote growth", "system": "U-937 macrophages and HeLa", "scale": "relative to: IC50 HeLa over IC50 amastigotes", "measurement": "selectivity index", "result": "> 2.3"}
{"SMILES": "CO[C@H]1/C=C/O[C@@]2(C)Oc3c(C)c(O)c4c(c3C2=O)C2=NC3(CCN(CC(C)C)CC3)NC2=C(NC(=O)/C(C)=C\\C=C\\[C@H](C)[C@H](O)[C@@H](C)[C@@H](O)[C@@H](C)[C@H](OC(C)=O)[C@@H]1C)C4=O", "organism": "Mycobacteroides abscessus", "assay": "bacterial growth", "system": "subsp. massiliense clinical isolate", "setting": "slow grower", "measurement": "IC50", "result": "0.606 µM"}
{"SMILES": "COC(=O)[C@@H](CCSC)NCc1cc2ccccc2nc1SC", "organism": "Pseudomonas aeruginosa", "setting": "16 µg/mL, without pentamidine", "scale": "relative to: control", "measurement": "growth", "result": "94.4%"}
{"note": "Excerpt of the above:"}
{"SMILES": "Fc1ccc(Nc2c(Cn3cccn3)nc3ccccn23)cc1", "organism": "Leishmania infantum", "system": "intramacrophage amastigotes, MHOM/MA(BE)/67/ITMAP263", "measurement": "IC50", "result": "> 64 µM"}
